Measured values from different studies.
A part holds a random share of what one study measured.

Block 1
Target: Interferon regulatory factor 3, full length, phosphomimetic (IRF3, Homo sapiens, UniProt Q14653, residues 1-427, S386D/S396D/S398D/S402D/T404D/S405D)
UniProt Q14653, sequence (whole entry, unmodified, looked up): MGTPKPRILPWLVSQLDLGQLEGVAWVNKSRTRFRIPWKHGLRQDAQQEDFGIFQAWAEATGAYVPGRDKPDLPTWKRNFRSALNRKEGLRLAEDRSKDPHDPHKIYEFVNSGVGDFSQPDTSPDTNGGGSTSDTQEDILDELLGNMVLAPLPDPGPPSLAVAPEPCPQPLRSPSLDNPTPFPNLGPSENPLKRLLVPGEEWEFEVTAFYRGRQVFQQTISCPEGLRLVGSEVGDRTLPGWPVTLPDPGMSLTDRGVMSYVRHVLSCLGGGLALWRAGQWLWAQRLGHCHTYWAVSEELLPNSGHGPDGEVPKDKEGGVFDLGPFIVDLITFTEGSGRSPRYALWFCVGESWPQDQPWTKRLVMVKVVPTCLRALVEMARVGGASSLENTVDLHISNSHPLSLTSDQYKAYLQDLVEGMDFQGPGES
Method: protein-binding microarray
Form: double-stranded DNA, one strand shown
Medium: in vitro
Concentration: 2540 nM top
Setting: 60-bp whole probe
With: salmon DNA 0.4 mg/ml
Baseline: random background probes
Direction: higher = stronger binding
All sequences stand within: GCCTAGCAC … GTCTTGATTCGCTTGACGCTGCTG
`GACGGTATCGGGTTTCGGGACGTGCTA` — result for “fitted relative affinity”: 3.04 z-score.
`TTAGGACTGCTTAGCCTTTAGTGCTAG`: “fitted relative affinity” -0.598 z-score.
`GTAGGTATCGACACTGGGTTAGTGCTA` — result for “fitted relative affinity”: 0.112 z-score.
`GACGATCTGAGTTTCGAGACGTGCTAG`: “fitted relative affinity” 1.33 z-score.
`TAGCTTCTCAATTAAAAAAAGTGCTAG` — result for “fitted relative affinity”: 0.211 z-score.
`GACGAACTGAGACGGGAGACGTGCTAG` — result for “fitted relative affinity”: -0.143 z-score.
Under “fitted relative affinity”, `TTAGGTTTCGGTCTCGCTTAGTGCTAG` is recorded as 8.76 z-score.

Block 2
Target: Sal-like protein 4, full length isoform B (SALL4, Homo sapiens, UniProt Q9UJQ4-2, residues 1-616)
Method: universal PBM
Form: double-stranded DNA, one strand shown
Medium: in vitro
Concentration: not given
Setting: 8-mer, flanks averaged, mean of replicates
Direction: higher = stronger binding
For `GGAGGCTA`, the E-score was -0.198.
The E-score of `AAGGTGAA` is reported as -0.0636.
The E-score of `TAGACTAA` is reported as -0.0197.
`AGCATTCG` has an E-score of -0.0862.

Block 3
Target: Phosphate system positive regulatory protein PHO4, full length, GST-tagged (PHO4, Saccharomyces cerevisiae, UniProt P07270, residues 1-312)
Method: competition protein-binding microarray
Form: double-stranded DNA, one strand shown
Medium: in vitro
Concentration: 2 µM
Setting: whole 60-bp probe, lowest competitor level
With: Cbf1 competitor, 0.05 µM
Direction: higher = stronger binding
All sequences stand within: … GTCTTGATTCGCTTGACGCTGCTG
Residues (chain): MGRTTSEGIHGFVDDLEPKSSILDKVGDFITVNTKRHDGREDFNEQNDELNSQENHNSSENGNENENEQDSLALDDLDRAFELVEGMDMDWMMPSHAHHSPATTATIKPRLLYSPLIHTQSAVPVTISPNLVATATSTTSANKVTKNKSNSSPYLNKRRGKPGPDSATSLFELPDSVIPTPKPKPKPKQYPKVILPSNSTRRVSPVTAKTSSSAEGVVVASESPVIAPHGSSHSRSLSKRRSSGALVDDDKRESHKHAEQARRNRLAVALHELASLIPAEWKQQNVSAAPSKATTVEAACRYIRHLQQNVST
`CTTTCCCGATCTTTTCACGTGCATTTAGCACATTTG` has a fluorescence intensity of 15200 a.u.
The fluorescence intensity of `AAATTACTAAGTTGCAATGTGGGTGACGCCGTATGA` is reported as 5870 a.u.
With `ACCACCACAACGACAAGCGTGCCGATGTCCCCGTTA` the fluorescence intensity was 8630 a.u.
With `AGTATAGAGTTTCGGCACGGGTGGCAGCGTTCAAAG` the fluorescence intensity was 9420 a.u.
With `CGACTTGCGAGAAGACACGTGCGCGGAAGGAGCTTG` the fluorescence intensity was 19800 a.u.
With `TCCTTGTTGACTTACCACATGTGTGGCCGCCTTTTA` the fluorescence intensity was 9700 a.u.

Mixed results
For `PhoQ, residues 284 288 289 292 302 303 TTSMTC`, the fold induction was 8.29 (PhoP, residues 12 14 15 18 19 SPWRL (Escherichia coli, UniProt P23836); Sort-seq, measured: YFP reporter; E. coli; PhoQ-PhoP variant library, with: 10 µM Mg2+; baseline: high Mg2+ state, higher = stronger signaling).

Some of these lines once more (block 1):
`GACGGTATCGGGTTTCGGGACGTGCTA` — result for “fitted relative affinity”: 3.04 z-score.
